Results of several laboratories.
Lines come from different studies, so protocols differ. “And” joins repeats or separate records; there may be more than shown.

SMILES	assay	system	conditions	how to read	quantity	result
O=C(NS(=O)(=O)c1cccs1)c1cc2ccccc2n1Cc1ccc(Br)c2ccccc12		KM mouse, chronic hyperuricaemia model	dose not given, day 18		body weight	38.8 g and 31.4 g and 35.6 g and 36.6 g and 33 g and 37.8 g
CC(=O)Nc1ccc(C2CCCCC2)cc1	hepatocyte stability	cryopreserved human hepatocytes	1 µM		hepatic clearance	19 mL/min/kg
COc1ccccc1NC(=O)OC1C(C)C(OC)C=COC2(C)Oc3c(C)c(O)c4c(c3C2=O)C2=NC3(CCN(CC(C)C)CC3)NC2=C(NC(=O)C(C)=CC=CC(C)C(O)C(C)C(O)C1C)C4=O (centres unmarked)		CD-1 mouse, plasma	oral, 12.5 mg/kg, efficacy dose		AUC	41800 ng·h/mL
O=C(NCCO)c1ccc([C@H]2[C@@H](F)[C@@H](F)C[C@@H](F)[C@H]2F)cc1	hepatocyte stability	cryopreserved mouse hepatocytes	1 µM		hepatic clearance	21 mL/min/kg
C=CC(=O)Nc1cc(Nc2nccc(-c3c[nH]c4ccccc34)n2)c(OC)cc1N(C)CCN(C)C	storage stability	human dried blood spot samples	30 d, -80 °C, MQC level	relative to: nominal concentration	percentage recovery	49.9%
COc1cc(N2CCN(C(=O)C3CCCN3)CC2)ccc1Nc1ncc(Cl)c(Nc2ccccc2P(C)(C)=O)n1 (centres unmarked)		nude mice, NCI-H3122 xenograft	oral, dose not given, day 1		body weight	23.8 g and 22.4 g and 22.9 g and 23 g
CN(C)C(=O)CNC(=O)c1ccc(C2CCCCC2)cc1	liver microsome stability	cynomolgus liver microsomes	1 µM		hepatic clearance	36 mL/min/kg
COc1cccc(OC)c1-c1cc(C(=O)NC2(C(=O)O)C3CC4CC(C3)CC2C4)nn1-c1ccc(C(=O)N(C)CCOCCN(C)C(=O)[C@H](CCCCNC(=O)[C@H](CC(C)C)NC(=O)C2OC2C(=O)O)NC(=O)CN2CCN(CC(=O)[O-])CCN(CC(=O)[O-])CCN(CC(=O)[O-])CC2)cc1C(C)C.[177Lu+3] (mixture of isomers)		mouse, HT-29 xenograft	24 h post injection, biodistribution	relative to: tumour over blood uptake	tumour-to-blood ratio	6.84
COc1ccc2c(c1)CN(C(=O)CCN1CCC(Cc3ccccc3)CC1)CCS2		paroxysmal AF patients, plasma	oral, 540 mg, 0 min		unbound plasma concentration	0 nM
CC(C)=CCC1=C([O-])C(=O)c2ccccc2C1=O.CC(C)=CCC1=C([O-])C(=O)c2ccccc2C1=O.O.[Cu+2].c1ccc(-c2ccccn2)nc1	cyclic voltammetry	CH2Cl2, Bu4NPF6	0.1 mM	relative to: Ag/AgCl sat. KOH	Epc2 cathodic peak potential	0.04 V
NS(=O)(=O)c1cccc(-c2ccc([C@H]3[C@@H](F)[C@@H](F)C[C@@H](F)[C@H]3F)cc2)c1	hepatocyte stability	cryopreserved mouse hepatocytes	1 µM		hepatic clearance	21 mL/min/kg
O=C(N1CCCCC1)C12CC(c3ccccc3)(C1)C2(Cl)Cl	metabolic stability	human, liver microsomes	2 µM, 25 min, pH 7.4		compound remaining	58%
O=C(Nc1cnccc1-c1ccc([18F])nc1)c1ccnc(NC(=O)C2CC2)c1		mice, transgenic, GSK-3β, early-stage, pancreas	intravenous, dose not given, 120 min		SUV	0.215
O=C(Nc1ccc(C2CCCCC2)cc1)C1(N2CCOCC2)CC1	hepatocyte stability	cryopreserved human hepatocytes	1 µM		hepatic clearance	18 mL/min/kg
Cc1cc(-c2ccc(C(=O)[C@@H]3CCCC[C@H]3C(=O)Nc3cnn4c3C(=O)NCC4)cc2)[nH]n1		human, urine	oral, 200 mg, mean of six subjects	relative to: dose	recovery of radioactivity	5.9%
CC1(C)CC[C@]2(NC(=O)C(C)(F)F)CC[C@]3(C)[C@H](C(=O)C=C4[C@@]5(C)C=C(C#N)C(=O)C(C)(C)[C@@H]5CC[C@]43C)[C@@H]2C1		human, plasma	oral, 150 mg, alone, geometric least-squares mean		AUC(0-inf)	1380 ng·h/mL
CCc1cnc(NC(=O)c2cc(S(=O)(=O)N3CCOCC3)ccc2N(C)C2CCCC2)s1		mouse, serum	10 mg/kg, 3 doses		Triglyceride	102 mg/dL
